Experimental data of several laboratories.
Each numbered part is a random draw from the data of one study; scales do not carry over between parts.

Series 1
Target: Histone acetyltransferase KAT6A, winged helix 1, GST fusion (KAT6A, Homo sapiens, UniProt Q92794, residues 1-85)
Technique: protein binding microarray
Molecule type: double-stranded DNA, one strand shown
Sample: in vitro
Concentration: not given
Notes: 8-mer, flanks averaged, mean of 2 arrays, mostly near background
Baseline: not given
Direction: higher = stronger binding
Quantity: E-score
Target sequence (chain): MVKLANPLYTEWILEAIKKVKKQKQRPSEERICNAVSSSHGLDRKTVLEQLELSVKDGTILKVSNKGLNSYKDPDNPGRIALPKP
CAAATTCA: -0.116
CGGCCAAG: 0.211
AGTCTCTG: -0.136
GTTATTGA: -0.203
GACATAGC: -0.0389
ATTCACCC: -0.142
AAAACTGT: -0.0927
GTCCAATA: 0.0799
TGCAGTAA: -0.136
ATGCGCGC: 0.446
GATCATAA: -0.133
ATCTACTA: -0.0307
TACACAAA: -0.0659
AAGTTCTC: -0.231
TCAGGTCA: -0.176
GGATATGA: 0.0642
CCGCTCCC: 0.377
CAACGCCG: 0.287
CCAGGACG: 0.0315
ACATATGG: -0.0717

Series 2
Target: Phosphate system positive regulatory protein PHO4, full length, GST-tagged (PHO4, Saccharomyces cerevisiae, UniProt P07270, residues 1-312)
Technique: competition protein-binding microarray
Molecule type: double-stranded DNA, one strand shown
Sample: in vitro
Concentration: 2 µM
Notes: whole 60-bp probe, lowest competitor level
Together with: Cbf1 competitor, 0.05 µM
Direction: higher = stronger binding
Quantity: fluorescence intensity
Construct (chain): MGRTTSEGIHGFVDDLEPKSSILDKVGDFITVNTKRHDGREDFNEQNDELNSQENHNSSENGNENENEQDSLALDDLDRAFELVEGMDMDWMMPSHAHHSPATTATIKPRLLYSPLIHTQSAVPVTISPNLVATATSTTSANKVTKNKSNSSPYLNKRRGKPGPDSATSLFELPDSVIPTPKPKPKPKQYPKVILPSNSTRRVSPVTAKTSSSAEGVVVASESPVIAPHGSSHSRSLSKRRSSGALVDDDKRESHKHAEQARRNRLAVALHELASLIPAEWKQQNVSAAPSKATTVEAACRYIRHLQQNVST
CGGGGTTAAGTTTGCCGGGTGGGTGGCTTGCAGCAGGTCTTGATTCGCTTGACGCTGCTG: 5300 a.u.
CTTCTATGACCTCTTCACGTGGCCGAATGTTCTGTTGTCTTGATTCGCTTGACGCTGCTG: 15000 a.u.
CGGGGTTAAGTTTGTCACCAGACTTGCTTGCAGCAGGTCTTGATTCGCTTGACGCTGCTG: 3630 a.u.
CTAACGAAGGTTTGGAGTGTGGGTGACAAGCCAAGTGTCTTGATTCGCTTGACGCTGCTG: 5370 a.u.
TGAAAAAACCCTTTTCGCGTGCCAGTGATGCTTCCAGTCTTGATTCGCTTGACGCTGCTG: 7070 a.u.
CTAACGAAGGTTTGCGTCGTGGGTGACAAGCCAAGTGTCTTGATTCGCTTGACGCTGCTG: 7250 a.u.
CGACATTCAGACCTACACGTACAAAACACGAATGCTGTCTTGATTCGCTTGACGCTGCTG: 6870 a.u.
AAGTTTGTAATTTTCCTCGTGTCCATAGTGGAAGATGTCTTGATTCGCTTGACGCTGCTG: 10100 a.u.
CCTGGACGCATTCAACACGCTGCTCGAGCGGCTGCTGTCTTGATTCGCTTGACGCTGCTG: 6240 a.u.
AATCGCTCATTATCTTCGCTGCCATTTTCACCCTGAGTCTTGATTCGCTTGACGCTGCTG: 3170 a.u.
TATTATTGATCGAGTCACGTTCTTCCAACGTTTCCGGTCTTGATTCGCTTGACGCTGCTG: 14100 a.u.
CCGCAGACTTTAAGTGCCGTGACGGGTTCCTGGTTAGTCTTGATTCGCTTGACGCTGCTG: 3080 a.u.
AATAAGTCGATCCAACACGTGGTGAGATACTAGCAGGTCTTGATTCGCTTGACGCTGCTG: 18300 a.u.
ATTTCTTTTTTTCTACACGTTGGTCTGATGTCTCAGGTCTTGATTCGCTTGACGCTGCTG: 10300 a.u.
CTTCTGTAAATTTGTCACGCGACTTGACGCGCCCCGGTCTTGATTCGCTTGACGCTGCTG: 7640 a.u.
AATCTTTCAATCGCCATCGTGGGTAAGGATACGCCTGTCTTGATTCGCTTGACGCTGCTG: 10500 a.u.
CTAACGAAGGTTTTTCACGTGTTGTACAAGCCAAGTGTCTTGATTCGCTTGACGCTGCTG: 14000 a.u.
TTGAGCTACCCTTTGCACGTTCTTTCCAATATGCAGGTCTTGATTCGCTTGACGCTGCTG: 12400 a.u.
CGTCCTAGTGATTGCGTTGTGGGTGCCATGAGGAAGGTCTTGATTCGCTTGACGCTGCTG: 6860 a.u.
GCCTTTTCCATCGACCACGTTGACAAATACGGCATCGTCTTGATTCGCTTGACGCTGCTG: 12500 a.u.
CGGGGTTAAGTTTGCTAAGTGGGTGGCTTGCAGCAGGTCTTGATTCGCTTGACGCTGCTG: 4970 a.u.
CTCCGAAAAGAATAGCATGTGCAAGATGAGTTACCGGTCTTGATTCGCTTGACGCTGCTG: 11400 a.u.
CTTCTGTAAATTTGGTTAGTGGGTGGACGCGCCCCGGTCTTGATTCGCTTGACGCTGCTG: 4420 a.u.
CATACCCAACCTTTTCACGTGGTATAAGATATTTGTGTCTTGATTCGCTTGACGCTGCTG: 13900 a.u.
TACATCCCTTTTACACCCGTGCAAAAAAGGTGTTTGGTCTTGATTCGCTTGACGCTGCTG: 7270 a.u.

Series 3
Target: RNA binding protein fox-1 homolog 2, RRM domain, GST-SBP tag (RBFOX2, Homo sapiens, UniProt O43251-10, residues 100-194)
Technique: RNA Bind-n-Seq
Molecule type: RNA
Sample: in vitro
Concentration: 365 nM
Notes: natural RNA segment, single round, ends assumed
Baseline: no-protein control
Direction: higher = stronger binding
Quantity: RBNS enrichment (R)
Construct (chain): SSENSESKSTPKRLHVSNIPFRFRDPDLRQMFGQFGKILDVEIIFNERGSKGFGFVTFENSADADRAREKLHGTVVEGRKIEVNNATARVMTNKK
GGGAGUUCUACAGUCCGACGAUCUUGUUUGCACAUUAUUAUGGAACACUUUCCUACUUAGGCAGUUACUCUUCCAUGUUUAUACUUGGCCUCUUCUGCAAGAGGAAUCUCUUGAAAACAGGGGCACACAGAAAUGGAAUUCUCGGGUGCCAA: 0.306
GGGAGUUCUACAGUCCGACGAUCGCUUUCGCUGCUUUAGAGCACCACAGACCUGACUGCUGCCGAGUCGGUCCCUGCAGCUAAUGCUCGAAGACCUUCUGGGCUCCUCGUGGCACUAGGCCCUUCACCUUGACUGGAAUUCUCGGGUGCCAA: 0.232
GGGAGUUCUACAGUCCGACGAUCGGGUAAUCUGAUGUAUAGUUGUUUUGUUGCUGAUGUUUCCAUUGAAAUUUCAGCUCUGAGUUUGUGCACAUGAAUACUUACUUGUGUUUACCAAAGGUCUAAGGCAUUUGUGGAAUUCUCGGGUGCCAA: 1.38
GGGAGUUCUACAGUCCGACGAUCUGAAGACUGAAGCCCCACAGUGGAAUUGGCAAACCCACUGCAGCCCCUGAGAGGAGGUCGAAUGGGUAAAGGAGCAUUUUUUUAUUCAGCAGACUUUCUCUGUGUAUGAGUGGAAUUCUCGGGUGCCAA: 0.558
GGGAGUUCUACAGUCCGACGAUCAAAACUGGCACAUUUGUUCUGCAGACUAUUGCAGGAAUGUUUUUUCCUAGCAUUUCUAUAUUAUCUGUCCAUUCUGAGGAACCAGUGAAUGUCCUAUAAAUGCACCUCCUUGGAAUUCUCGGGUGCCAA: 0.944
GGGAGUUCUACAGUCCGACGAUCUGGGCAGCGAUAGAGGCCAAGUAUCUUGUGGGCACUCCUGCCUAACCCUGCAUUGGGAUAUCGAAGCACUGCUUAGGUUCUGAGGUGUGGGUUCCCUGCCACCCAGGCAAUGGAAUUCUCGGGUGCCAA: 0.173
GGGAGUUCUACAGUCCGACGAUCUAAGAAUGUGUUCAGAUAUUUGUGUUUUCUUUCCUCAAUUUCUUACCAUGUAAUGUAACAUCAAUUAAGAGAAUAUCUGUAGUUACCAUAUUUAAGAUUUGAGAUACCAAUGGAAUUCUCGGGUGCCAA: 0.628
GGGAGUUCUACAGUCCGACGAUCGUGAAAGAAAAGCACAACAAAACUAGGGUUUUUUGUUCAUUUGCUUGCUUUUAUGAUUUUUUUUGGUUUGUUUUAAUAUCAGGUGGAUUUUUGUUUCUAAGCAAUAUAUAUGGAAUUCUCGGGUGCCAA: 0.937
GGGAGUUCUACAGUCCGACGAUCGCUAUAAAAUGGUGAAAGCUUCCUUCUAAACUGCCCCAAGUGUUGAAGUCUUCACUUUAUUUUGUUGUUUUGUUUUGUUUUUCUGUUUUGUUUGCAAAAUGGUAAGGGGGUGGAAUUCUCGGGUGCCAA: 1.04
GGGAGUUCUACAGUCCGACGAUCAGUAGAAAACAACUUAGUUUUUCUUUUUUCCUGAAUGCGUCAUAGGCUUGUGAGUGAUUUUUGUCCAUUCAAUUGUGCCUUCUUUGUAUUAUGAUAAGAUGGGGGUACUUUGGAAUUCUCGGGUGCCAA: 0.609
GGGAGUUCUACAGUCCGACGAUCAUGUGUAAGAGUCUUUCUGUAUGACGAACUACAUGGAAAAGACUUCUGUGGACAUAAUUCUGACCGAAACCCAUGAAGUUACUUCAGUAUAAGAAGAACGUUACACGGAAUGGAAUUCUCGGGUGCCAA: 0.286
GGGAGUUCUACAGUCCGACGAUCGAGAGGCUCUACAUAAUCCAGGAGGGCAGGAUCCUCUACAAGGGUAAAUCUGGCCCUUGGAACUACAACCCAGAGGAAGUUCGUGCUGUUCUGGAAAAGCUCCACAGUUAUGGAAUUCUCGGGUGCCAA: 0.233

Series 4
Target: Sal-like protein 4, full length isoform A (SALL4, Homo sapiens, UniProt Q9UJQ4, residues 1-1053)
Chain of UniProt Q9UJQ4 (whole entry, looked up): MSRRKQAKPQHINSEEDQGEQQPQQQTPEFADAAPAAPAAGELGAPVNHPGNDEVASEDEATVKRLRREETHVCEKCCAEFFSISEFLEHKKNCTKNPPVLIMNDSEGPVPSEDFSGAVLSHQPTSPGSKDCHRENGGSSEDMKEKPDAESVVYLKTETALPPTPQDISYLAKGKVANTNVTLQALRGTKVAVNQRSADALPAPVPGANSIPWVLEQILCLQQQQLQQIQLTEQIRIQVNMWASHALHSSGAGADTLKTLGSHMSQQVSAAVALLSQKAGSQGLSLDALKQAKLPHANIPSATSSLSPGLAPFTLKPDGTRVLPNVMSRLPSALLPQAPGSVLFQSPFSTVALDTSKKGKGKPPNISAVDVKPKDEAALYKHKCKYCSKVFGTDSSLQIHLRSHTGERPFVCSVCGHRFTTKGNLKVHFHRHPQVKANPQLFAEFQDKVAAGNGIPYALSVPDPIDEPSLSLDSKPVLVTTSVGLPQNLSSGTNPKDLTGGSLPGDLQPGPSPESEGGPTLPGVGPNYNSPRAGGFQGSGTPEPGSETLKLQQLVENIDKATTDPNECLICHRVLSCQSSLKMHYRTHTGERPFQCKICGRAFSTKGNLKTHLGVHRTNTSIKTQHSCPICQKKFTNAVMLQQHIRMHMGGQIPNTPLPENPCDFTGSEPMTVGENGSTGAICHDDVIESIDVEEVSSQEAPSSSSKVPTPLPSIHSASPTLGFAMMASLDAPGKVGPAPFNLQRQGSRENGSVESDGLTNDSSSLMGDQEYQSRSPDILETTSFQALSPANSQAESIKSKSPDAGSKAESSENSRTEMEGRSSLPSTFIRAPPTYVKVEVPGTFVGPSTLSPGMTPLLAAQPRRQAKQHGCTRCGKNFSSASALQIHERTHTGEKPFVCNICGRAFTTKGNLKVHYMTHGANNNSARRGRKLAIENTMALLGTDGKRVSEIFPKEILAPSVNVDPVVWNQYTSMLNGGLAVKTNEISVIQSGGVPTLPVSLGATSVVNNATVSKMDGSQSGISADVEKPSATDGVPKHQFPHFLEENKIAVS
Technique: universal PBM
Molecule type: double-stranded DNA, one strand shown
Sample: in vitro
Concentration: 600 nM
Notes: 8-mer, flanks averaged, mean of replicates
Direction: higher = stronger binding
Quantity: E-score
AGTAGTAC: 0.0909
CTTATGAC: 0.251
TCTCCTAA: 0.179
TAAATACA: 0.34
ATAAAACG: 0.257
GACACTCA: -0.109
AAGGCAGA: -0.0333
GCGAATGA: 0.171
AGGTTTGA: -0.0826
CAAATGAA: 0.335
GCCGGAGA: -0.199
CGCGGTTC: -0.276
AAATGTGC: 0.144
GACCTATC: -0.0516
CTTCACGA: -0.222
GCACCTCC: -0.392
TACCAAGA: 0.114
AGCACTGG: -0.208
GAAGTCCC: -0.204
ACGTAATC: 0.106
GTGACAGA: -0.056
ATCGCCGA: -0.0982
CCCGCCCA: -0.107
AGATGGTG: -0.0836

For quick reference, copied from above (series 4):
AAATGTGC: 0.144
GACCTATC: -0.0516
CTTCACGA: -0.222
GCACCTCC: -0.392
TACCAAGA: 0.114
AGCACTGG: -0.208
GAAGTCCC: -0.204
